Assay results gathered from unrelated publications.
Compare with care: the assays were run in different laboratories. Several values in a cell are separate wells, animals, samples, runs or records. Numbers after ± are the reported error.

SMILES = CCn1cc(-c2cc(Cn3ccoc3=N)cc3c2CCN([C@@H](C)c2cc(OC)ccn2)C3=O)c(C(F)(F)F)n1; cell line = SNU119; assay = cell growth; conditions = 120 h; measurement = EC50; result = 0.268 µM
SMILES = C[C@H](CS)C(=O)N1CCC[C@H]1C(=O)O; cell line = HUVEC; assay = western blot; conditions = 10, 100, 1 µM, added: angiotensin II; how to read = reference: angiotensin II alone; measurement = p-p65/p65 ratio; result = 34.2 % decrease
SMILES = COc1ccc(-n2nc(C(C)=O)s/c2=N\N=C(/C)c2ccc(NC(=O)c3ccc(C)cc3)cc2)cc1; cell line = HepG2; conditions = 0.078 µM; measurement = viability; result = 99.8%
SMILES = Cn1cc(-c2ccc(-c3cncc(Cl)c3N3CCC4(CCNC4=O)CC3)cc2)cn1; cell line = COLO 205; assay = gene expression, microarray, item: IER5 mRNA; conditions = concentration not given, 6 h; how to read = reference: untreated cells; measurement = log2 fold change; result = 2.2
SMILES = CCCOc1ccn2c(C(C)=O)cc(-c3ccccc3S(C)(=O)=O)c2c1; cell line = THP-1; assay = pyroptotic LDH release; conditions = 2 µM, 40 min, added: LPS then nigericin; measurement = inhibition; result = -11.3%
SMILES = C=Cc1c2[n-]c(c1C)/C=c1\[n-]/c(c(C)c1C=C)=C\c1[n-]c(c(CCC(=O)O)c1C)/C=c1\[n-]c(c(C)c1CCC(=O)O)=C2.[Sn+4]; cell line = SH-SY5Y; assay = RNA-seq, item: FBLIM1 mRNA; conditions = 5 µM, 5 h; how to read = reference: untreated cells; measurement = fold change; result = 1.97
SMILES = Cc1cccc(-c2[nH]c(CNc3ccccc3F)nc2-c2ccc3ncnn3c2)n1; cell line = bone marrow CD138+ myeloma cells; assay = XTT; conditions = 1.4 µM, mean of three patients; measurement = viability; result = 12%
SMILES = O=C(NO)c1ccc(C2=Nc3ccccc3Oc3ccccc32)cc1; cell line = HEK293T ATF4-FLuc reporter; assay = ATF4 reporter gene, activator, luciferase reporter; measurement = EC50; result = 2.23 µM
SMILES = Cc1cc(Nc2ncc(Cl)c(Nc3ccccc3S(=O)(=O)C(C)C)n2)c(OC(C)C)cc1C1CCNCC1; cell line = CLB-BAR; assay = phosphoproteomics LC-MS/MS, item: GAB2 phosphorylation; conditions = 200 nM, 60 min; how to read = reference: untreated; measurement = log2 fold change; result = -4.21
SMILES = c1ccc2[nH]ccc2c1; cell line = HCT-8; assay = RNA-seq, item: SERPINF1; conditions = concentration not given; measurement = mRNA level, LS mean; result = 1.64 counts per million
SMILES = CC(=O)NCC(=O)O; cell line = THP-1; assay = pyroptotic LDH release; conditions = 2 µM, 40 min, added: LPS then nigericin; measurement = inhibition; result = 12%
SMILES = CCCCN1CCN(c2ccc3[nH]c(-c4ccc5[nH]c(-c6ccc(OCC)c(OCC)c6)nc5c4)nc3c2)CC1; cell line = SF-268; assay = SRB; conditions = 10 µM, 48 h; measurement = growth percent; result = 51.6%
SMILES = Cc1nc(Nc2[nH]nc3c2CN(C(=O)N[C@H](CN(C)C)c2ccccc2)C3(C)C)c2sccc2n1; cell line = THP-1; assay = pyroptotic LDH release; conditions = 2 µM, 40 min, added: LPS then nigericin; measurement = inhibition; result = 16.1%
SMILES = CCc1c(-c2ccccc2)c(-c2ccccc2)nn1-c1ccccc1-c1cccc(OCC(=O)O)c1; cell line = mouse osteoclasts; assay = RT-qPCR, item: Trap; conditions = 1 µM, unit not given, added: M-CSF plus RANKL; how to read = reference: bone marrow macrophages; measurement = mRNA level; result = 3.04 and 2 and 3.01
SMILES = COc1cc(O)c2c(=O)c(O)c(-c3ccc(O)c(O)c3)oc2c1; cell line = Caco-2/THP-1 co-culture; assay = TEER; conditions = concentration not given, added: LPS 50 ng/mL; how to read = reference: control; measurement = transepithelial electrical resistance; result = 74.1 ± 1.2%
SMILES = CCn1cc(-c2cc(Cn3ccnc3)cc3c2CCN([C@H](c2cc(OC)ccn2)C2CC2)C3=O)c(C(F)(F)F)n1; cell line = HCC38; assay = cell growth, inhibitor; conditions = 120 h; measurement = EC50; result = 23.6 µM
SMILES = CO/N=C(\C(=O)N[C@@H]1C(=O)N2C(C(=O)OC(C)OC(C)=O)=C(COC(N)=O)CS[C@H]12)c1ccco1 (stereo partly drawn); cell line = THP-1; assay = pyroptotic LDH release; conditions = 2 µM, 40 min, added: LPS then nigericin; measurement = inhibition; result = 12.9%
SMILES = COC[C@H](NC(=O)c1cnc(C)s1)C(=O)N[C@@H](COC)C(=O)N[C@@H](Cc1ccccc1)C(=O)[C@@]1(C)CO1; cell line = HEK293T ATF4-FLuc reporter; assay = ATF4 reporter gene, activator, luciferase reporter; measurement = EC50; result = 0.285 µM
SMILES = C[C@@H]1CC[C@H]2C(C)(C)[C@H]3C[C@@]12CC[C@@]3(C)O; cell line = THP-1; assay = pyroptotic LDH release; conditions = 2 µM, 40 min, added: LPS then nigericin; measurement = inhibition; result = 28.7%
SMILES = O=C(O)/C=C/c1ccc(O)c(O)c1; cell line = Caco-2/THP-1 co-culture; assay = TEER; conditions = 0.25 µg/mL, added: LPS 250 ng/mL; how to read = reference: control; measurement = transepithelial electrical resistance; result = 81.4 ± 11.2%
SMILES = COc1ccc(NC(=S)N/N=C/c2cccc3cc4ccccc4nc23)cc1; cell line = HeLa; assay = TMRE flow cytometry; conditions = IC25, 48 h, unit not given, added: N-acetylcysteine; how to read = reference: DMSO control; measurement = mitochondrial membrane potential; result = 1.1 ± 0.26
SMILES = C[C@@]12C(=O)OC(=O)[C@]1(C)[C@H]1CC[C@@H]2O1; cell line = human iPSC cardiomyocytes; assay = plate-normalised; conditions = concentration not given, hit retest; how to read = reference: vehicle controls, SDs below control; measurement = MyBP-C level change; result = 8 SD
SMILES = O=C(O)CCc1ccc(O)c(O)c1; cell line = Caco-2/THP-1 co-culture; assay = TEER; conditions = concentration not given, added: LPS 1000 ng/mL; how to read = reference: control; measurement = transepithelial electrical resistance; result = 85.7 ± 5.8%
SMILES = Cn1cc(Nc2nccc(-c3ccc4c(c3)CN(C3COC3)CC[C@H]4NC(=O)c3cn(C(C)(C)C)nn3)n2)cn1; cell line = mouse splenic B cells; assay = item: IL-15 signalling; conditions = 30 mg/kg, IgD-activated in vivo; how to read = reference: vehicle, direction not given; measurement = pathway activation z-score; result = 1.16
SMILES = COc1cccc2c1C(=O)c1c(O)c3c(c(O)c1C2=O)C[C@@](O)(C(=O)CO)C[C@@H]3O[C@H]1C[C@H](N)[C@H](O)[C@H](C)O1; cell line = HepG2; assay = protein level, item: metallothionein; conditions = 24 h; measurement = representative mode point of departure; result = 0.0282 µM
SMILES = COc1cnc2cccc(N3CCc4c(cc(Cn5ccnc5C)cc4-c4cn(C)nc4C(F)(F)F)C3=O)c2c1; cell line = SW48; assay = cell growth, inhibitor; conditions = 120 h; measurement = EC50; result = 18.5 µM
SMILES = CC(C)(C)NC(=O)c1cncn1C1CCN(c2ccc(-c3nnc(C(F)(F)F)o3)cn2)CC1; cell line = HDMEC; assay = qPCR, item: GILZ; conditions = concentration not given, unit not given; how to read = reference: DMSO; measurement = mRNA level; result = 0.496
SMILES = CCOc1cc2ncc(C#N)c(Nc3ccc(OCc4ccccn4)c(Cl)c3)c2cc1NC(=O)/C=C/[C@H]1CCCN1C; cell line = HEK293T ATF4-FLuc reporter; assay = ATF4 reporter gene, activator, luciferase reporter; measurement = EC50; result = > 9.96 µM
SMILES = Cn1ncc2c(NC(P(=O)(O)O)P(=O)(O)O)nc(-c3cccc(C(=O)Nc4ccc(C(F)(F)F)cc4)c3)nc21; cell line = MIA PaCa-2; assay = Rap1A prenylation, inhibitor, Western blot; measurement = lowest effective concentration; result = ≤ 100 nM
SMILES = COc1cc(-c2oc3cc(O)cc(O)c3c(=O)c2O)ccc1O; cell line = Caco-2/THP-1 co-culture; assay = TEER; conditions = concentration not given, added: LPS 250 ng/mL; how to read = reference: control; measurement = transepithelial electrical resistance; result = 98.3 ± 3.1%
SMILES = Clc1nc(NCc2ccco2)c2[nH]cnc2n1; cell line = FD iPSC-derived cardiomyocytes; assay = alternative splicing, RNA-seq, item: DPY19L2 exon chr12(-):63569223-63569349; conditions = unit not given; how to read = reference: DMSO minus compound; measurement = ΔPSI; result = -0.323
SMILES = CNC(=O)c1cccc2c(Nc3ccc(NS(C)(=O)=O)cc3OC)c3cccc(C)c3nc12; cell line = HEK293T ATF4-FLuc reporter; assay = ATF4 reporter gene, activator, luciferase reporter; measurement = EC50; result = 2.39 µM
SMILES = COc1cc(/C=C/C(=O)N2CCC=CC2=O)cc(OC)c1OC; cell line = MDA-MB-468; assay = quantitative RT-PCR, item: PARK7; conditions = 30 µM, 8 h; how to read = reference: untreated cells; measurement = mRNA level; result = 84.8 ± 1.5%
SMILES = O=C(/C=C/C=C/C=C/C1CCCCC1)NC1=C[C@@](O)(/C=C/C=C/C=C/C(=O)NC2=C(O)CCC2=O)[C@@H]2O[C@@H]2C1=O; cell line = MDST8; assay = cell growth, CellTiter-Glo; conditions = 78 h; measurement = GI50; result = 18.5 µM
SMILES = O=C(O)Cc1cccc(O)c1; cell line = THP-1; assay = pyroptotic LDH release; conditions = 2 µM, 40 min, added: LPS then nigericin; measurement = inhibition; result = 40.1%
SMILES = Nc1nc(Cl)nc2c1ncn2[C@@H]1O[C@H](CO)[C@@H](O)[C@@H]1F; cell line = HEK293T ATF4-FLuc reporter; assay = ATF4 reporter gene, activator, luciferase reporter; measurement = EC50; result = 7.84 µM
SMILES = CC(N)C12CC3CC(CC(C3)C1)C2 (stereo not drawn); cell line = THP-1; assay = pyroptotic LDH release; conditions = 2 µM, 40 min, added: LPS then nigericin; measurement = inhibition; result = -19%
SMILES = O=C(c1cc(Cc2n[nH]c(=O)c3ccccc23)ccc1F)N1CCN(C(=O)C2CC2)CC1; cell line = MDA-MB-436 BRCA1-mutant; assay = colony formation; conditions = 10 nM; how to read = reference: vehicle (DMSO); measurement = colony survival; result = 56.5%
SMILES = CONC(=N)c1ccc(-c2ccc(-c3ccc(C(=N)NOC)cc3)o2)cc1; cell line = HEK293T ATF4-FLuc reporter; assay = ATF4 reporter gene, activator, luciferase reporter; measurement = EC50; result = 8.64 µM
SMILES = C=CC(=O)Nc1cc(Nc2ncc(C(=O)OC(C)C)c(-c3cn(C)c4ccccc34)n2)c(OC)cc1N(C)CCN(C)C; cell line = NCI-H2073 EGFR SVD knock-in; assay = cell proliferation, CellTiter-Glo; how to read = reference: knock-in over parental NCI-H2073; measurement = selectivity ratio; result = 0.7
SMILES = COc1cc(C=CC(=O)O)cc(OC)c1OC; cell line = THP-1; assay = pyroptotic LDH release; conditions = 2 µM, 40 min, added: LPS then nigericin; measurement = inhibition; result = 16.2%
SMILES = CN(C)C/C=C/C(=O)Nc1cc2c(Nc3ccc(F)c(Cl)c3)ncnc2cc1C#C[C@@H]1[C@H]2COC[C@@H]12; cell line = HEK293T ATF4-FLuc reporter; assay = ATF4 reporter gene, activator, luciferase reporter; measurement = EC50; result = 1.67 µM
